Results collected from several papers.
Parts stem from different laboratories: compare values within a part only. Changes are numbered by the printed parent chain.

Study 1 — target: CCND2, cyclin fold, Cln2 fusion (human); method: yeast growth competition, sequencing; medium: yeast; setting: weak parent motif; reference: not given; reading: higher = stronger binding
Starting sequence: RP1L1 docking peptide (human); TLGLGPLSFTLED; partner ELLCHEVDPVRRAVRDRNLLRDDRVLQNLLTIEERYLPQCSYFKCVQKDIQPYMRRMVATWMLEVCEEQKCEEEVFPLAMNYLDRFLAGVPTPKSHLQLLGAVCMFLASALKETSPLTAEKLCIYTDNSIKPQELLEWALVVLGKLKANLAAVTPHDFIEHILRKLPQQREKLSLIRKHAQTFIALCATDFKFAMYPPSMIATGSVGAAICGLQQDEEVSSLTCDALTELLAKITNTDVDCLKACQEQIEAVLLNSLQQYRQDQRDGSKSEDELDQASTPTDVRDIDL
`TLGLGPLSFTAED [L11A]` — result for “normalised enrichment score”: -0.103.
For `ALGLGPLSFTLED [T1A]`, “normalised enrichment score” read -0.288.
For `TLGLAPLSFTLED [G5A]`, “normalised enrichment score” read -0.0229.
`TLALGPLSFTLED [G3A]` — result for “normalised enrichment score”: -0.15.
Under “normalised enrichment score”, `TLGLGALSFTLED [P6A]` is recorded as -0.0615.
For `TLGLGPLSFTLAD [E12A]`, “normalised enrichment score” read 0.125.

Study 2 — method: RNA Bind-n-Seq; molecule type: RNA; medium: in vitro; tested at: 1 µM; setting: whole 134-nt RNA, ends assumed; with: 150 mM KCl; reference: input library; reading: higher = stronger binding
Target: Ras GTPase-activating protein-binding protein 1, C-terminal RGG region (G3BP1, Homo sapiens, UniProt Q13283)
UniProt Q13283, sequence (whole entry, looked up): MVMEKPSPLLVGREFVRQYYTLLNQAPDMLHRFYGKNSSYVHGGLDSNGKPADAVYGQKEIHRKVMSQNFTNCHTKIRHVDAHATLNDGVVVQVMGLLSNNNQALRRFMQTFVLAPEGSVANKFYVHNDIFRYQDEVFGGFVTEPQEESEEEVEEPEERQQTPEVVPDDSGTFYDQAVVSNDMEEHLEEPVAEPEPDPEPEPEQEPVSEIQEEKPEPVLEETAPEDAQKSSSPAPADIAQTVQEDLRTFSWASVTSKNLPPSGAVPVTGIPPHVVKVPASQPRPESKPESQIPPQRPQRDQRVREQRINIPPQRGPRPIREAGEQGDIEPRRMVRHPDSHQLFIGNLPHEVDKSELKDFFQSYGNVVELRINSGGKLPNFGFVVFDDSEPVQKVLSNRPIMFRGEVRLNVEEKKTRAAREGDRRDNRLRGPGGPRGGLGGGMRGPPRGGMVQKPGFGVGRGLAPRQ
`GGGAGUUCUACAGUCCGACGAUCGCAGGAAGUAAAAACAAAUGGAAAUGCUUCGGAUAGUGGCCGGGGUGGGGGUUGCUAAGGAAAGGGUGGGAUGGGAGUGGGUAAAGAGUUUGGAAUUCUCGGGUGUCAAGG` has a log2 enrichment of 1.5.
With `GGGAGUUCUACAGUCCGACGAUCUGAAGCGAGAAGCUGCCCUACCCCCAGUGAGCCCCCUGAAGGCGGCUCUCUCUGAGGAGGAGUUAGAGAAGAAAUCCAAGGCUAUCAUUGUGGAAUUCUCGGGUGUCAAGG` the log2 enrichment was -1.55.
`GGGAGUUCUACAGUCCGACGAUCUGGGAGGUGGAUUUUGUUUAUUUUUUUAGCUCAUCUCCAGGGGUGGGAAUUUUUUUUUAAUAUGUGUCAUGAAUAAAGUUGUUUUUGAAAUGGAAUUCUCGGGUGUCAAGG` has a log2 enrichment of 3.39.
With `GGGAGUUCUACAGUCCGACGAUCUGGCCCUGGUGGCAUGCGGGGAGGAAGAGGUCGCCUCAUGGAUCGUGGUGGUCCCGGUGGAAUGUUCAGAGGUGGCCGUGGUGGAGACAGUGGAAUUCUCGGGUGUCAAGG` the log2 enrichment was 1.69.
For `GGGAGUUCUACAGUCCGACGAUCUAACUUUAGAGGAGCAUCUGAUGGAUAUGGCAGUGGACGUGGAUUUGGGGAUGGCUAUAAUGGGUAUGGAGGAGGACCUGGAGGUGGCAAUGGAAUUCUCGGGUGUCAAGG`, the log2 enrichment was 0.459.
For `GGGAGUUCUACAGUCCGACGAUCUAACUUUCGAGGAGGAUCUGAUGGAUAUGGCAGUGGACGUGGAUUUGGGGAUGGCUAUAAUGGGUAUGGAGGAGGACCUGGAGGUGGCAAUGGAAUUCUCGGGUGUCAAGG`, the log2 enrichment was -1.27.
The log2 enrichment of `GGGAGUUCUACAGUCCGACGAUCAGUCCUGUGCUACACAUCGUAUGUACCGAAUCGGGUUUUGGUUUUGGGGUUUUGGGGAAAGUAUUAUGUUACGCCGUUCGGAUCUGCACUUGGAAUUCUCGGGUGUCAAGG` is reported as -0.436.
`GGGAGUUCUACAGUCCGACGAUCGCAGGAAGCAAAAACAAAUGGAAAUGCUUCGGAUAGUGGCAGGGGUGGGGGUUGCUAAGGAAAGGGUGGGAUGGGAGUGGGUAAAGAGUUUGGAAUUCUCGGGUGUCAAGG` has a log2 enrichment of 1.76.
With `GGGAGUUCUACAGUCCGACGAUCAAGUCCUGUGCUACACAUCGUAUGUACCGAAUCGGAAAAAAAGGAGGAAAAAAAGGAAAGUAUUAUGUUACGCCGUUCGGAUCUGCACUUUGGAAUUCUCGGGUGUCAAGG` the log2 enrichment was -1.92.

Study 3 — method: RNA Bind-n-Seq; molecule type: RNA; medium: in vitro; tested at: 100 nM; reference: input RNA pool; reading: higher = stronger binding
Target: RING finger protein unkempt homolog, zinc fingers 1-6, SBP tag (UNK, Homo sapiens, UniProt Q9C0B0, residues 30-357)
UniProt Q9C0B0, sequence (30-357, looked up): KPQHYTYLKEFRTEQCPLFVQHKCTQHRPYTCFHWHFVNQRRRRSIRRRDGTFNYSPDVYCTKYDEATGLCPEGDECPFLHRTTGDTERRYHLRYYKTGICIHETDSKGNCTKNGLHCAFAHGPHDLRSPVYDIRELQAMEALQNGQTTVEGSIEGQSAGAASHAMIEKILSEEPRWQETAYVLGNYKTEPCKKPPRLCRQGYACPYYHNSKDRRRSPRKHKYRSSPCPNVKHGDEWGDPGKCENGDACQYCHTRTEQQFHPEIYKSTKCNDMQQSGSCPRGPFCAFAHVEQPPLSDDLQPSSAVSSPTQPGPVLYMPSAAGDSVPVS
Setting: RNA with constant flanks, vertebrate orthologous sites, ends assumed
With `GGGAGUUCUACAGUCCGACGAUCCAUUGUACUCUGCUGUAUAAUAAACAAUCUUAGACAUUUAUCAAUUGUUGAUACAAAUGUUAGUCCCUAACCACUUUUUAUAUGUUUUAAAUUUUUGAAAUUCAAGUGUACCUGCCAUAACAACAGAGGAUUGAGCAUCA` the bound/input enrichment was 2.64 ratio.
The bound/input enrichment of `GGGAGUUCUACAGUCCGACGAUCGUCCCCUGGACCGGGACAGACUUUUUUUUUAAACGUCUUGAAACCUAAACUCUGUGCUUGUAGAAGACUGUAACCUUUUUGUCUUUUUUUUUUUUUAAACAAACAAAAAAACCAACCUCCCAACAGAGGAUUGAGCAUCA` is reported as 0.505 ratio.
For `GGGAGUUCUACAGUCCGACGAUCCAGUCUGCUCCUGGGCGAGUGACUGAGGGUGAAGCAUCCACUAGCGCUUCGAGGGCAUCAUAGUAUUUUUUUGCUGCCUCAGAGUCCCCAAAGCCUUCAAGCGGAAGUGGUAGUAGAUGGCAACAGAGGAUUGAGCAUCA`, the bound/input enrichment was 1.59 ratio.
For `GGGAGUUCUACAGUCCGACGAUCGAAAAUGGCUUCUGCUCCAUUAAAAAGUAAACAUUGUCCUCCAAAUAUAAAACUCCUUAAUAGAUAUUUUUGAAAUUAAAAUCUUUAAAUUUUAUAAAUCAGUUGUUGCCACUACACAACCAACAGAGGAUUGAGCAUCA`, the bound/input enrichment was 3.98 ratio.
The bound/input enrichment of `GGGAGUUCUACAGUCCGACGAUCAGAUUUGGACCUUGGAGCCGAACUAGAGACUAGCAAAAGUAAAGCAGACUUGUAAAAUUAUAGUCGUAUGCAGCUGCACAACAAAAGCACCACCACUAGCAGCUGUGUUAAAGGAUUUAUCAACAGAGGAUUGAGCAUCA` is reported as 0.436 ratio.
The bound/input enrichment of `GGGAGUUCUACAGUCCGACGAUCUUCAGGCACAACUGACUGGCUCACAGCAUUCCUUGCAUAGUUAUCUAGCAAAUGCAAGUGUGGUUAAUUUUCAGGAAACAACCAGGCAGUCAUCUUUACCUUGUAGCCCAGUCGGAGAUUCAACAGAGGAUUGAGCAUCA` is reported as 0.393 ratio.
For `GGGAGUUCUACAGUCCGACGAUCACGCUUGCAUCGUGGCAAACAGCCAACAUGGAAGUAGACGGGCUCUGCUGAUCUGAAAUUUACAUUUUUAAUUAUGUACUGGGGACAGGUUUUUGUCGCUUUACAUUGCUUCCUAGUUUACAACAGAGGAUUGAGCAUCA`, the bound/input enrichment was 0.64 ratio.
With `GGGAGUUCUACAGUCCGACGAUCGCUCUAGUUCUUAACAACCGACACUCCUAAAAGAUUUAGAAAAAAGUUUACAACAUAAUCUAGUUUACAGAAAAAUCUUGUGCUAGAAUACUUUUUAAAAGGUAUUUUGAAUACGAUUAACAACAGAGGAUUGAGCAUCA` the bound/input enrichment was 0.715 ratio.

Mixed results
With `PhoQ, residues 284 288 289 292 302 303 SMMNNA` the fold induction was 16.3 (PhoP, residues 12 14 15 18 19 NQCAL (Escherichia coli, UniProt P23836); Sort-seq, refers to: YFP reporter; E. coli; PhoQ-PhoP variant library, with: 10 µM Mg2+; reference: high Mg2+ state, higher = stronger signaling).

A few entries again (study 1):
For `ALGLGPLSFTLED [T1A]`, “normalised enrichment score” read -0.288.
For `TLGLAPLSFTLED [G5A]`, “normalised enrichment score” read -0.0229.
